Experimental data gathered from unrelated publications.
Lines come from different studies, so protocols differ. Values joined by “and” are separate records of one study, mostly repeats; a detail may differ. Numbers after ± are the reported error.

The tissue uptake of CCCC[C@H](NC(=O)CNC(=O)CNC(=O)[C@H](CCCCNC(=O)[C@H](CC(=O)O)NC(=O)C(C)c1ccc(CC(C)C)cc1)NC(=O)CN1CCN(CC(=O)O)CCN(CC(=O)O)CCN(CC(=O)O)CC1)C(=O)N[C@H]1CC(=O)NCCCC[C@@H](C(N)=O)NC(=O)[C@H](Cc2c[nH]c3ccccc23)NC(=O)[C@H](CCCNC(=N)N)NC(=O)[C@@H](Cc2ccccc2)NC(=O)[C@H](Cc2c[nH]cn2)NC1=O (stereo partly shown) [lutetium-177 labelled] is reported as 10.8 ± 2.89 %ID/g (C57 mice, tumour-bearing, tumor; intravenous, 0.037 MBq, 24 h).
For CCCC[C@H](NC(=O)CCCCCCCNC(=O)CN1CCN(CC(=O)O)CCN(CC(=O)O)CC1)C(=O)N[C@H]1CC(=O)NCCCC[C@@H](C(N)=O)NC(=O)[C@H](Cc2c[nH]c3ccccc23)NC(=O)[C@H](CCCNC(=N)N)NC(=O)[C@@H](Cc2ccccc2)NC(=O)[C@H](Cc2c[nH]cn2)NC1=O [fluorine-18 labelled], the tissue uptake was 0.02 ± 0.02 %ID/g (C57 mice B16-F10 melanoma, brain; intravenous, 0.37 MBq, 1 h).
Cc1cc(C)n(CCN(CCN)CCCCCCNC(=O)[C@@H](N)Cc2c[nH]cn2)n1.[99Tc+].[C-]#[O+].[C-]#[O+].[C-]#[O+] gave a tissue uptake of 2.8 ± 1 %ID/g (BALB/c nude mice A549 xenograft, blood; intravenous, 15 min).
The tissue uptake of COc1ccc(Nc2nc(Nc3ccc(OCCOCC[18F])cc3)ncc2Br)cc1 is reported as 2.48 ± 0.08 %ID/g (ICR mice, S180 tumour, heart; intravenous, 30 min, added: PF-562271 33 mg/kg oral 1 h before).
With O=C([O-])CN1CCN(CC(=O)[O-])CCN(CC(=O)NC[C@H]2CC[C@H](C(=O)N[C@H](Cc3cnc4ccccc4c3)C(=O)NCCCC[C@H](NC(=O)N[C@@H](CCC(=O)O)C(=O)O)C(=O)O)CC2)CCN(CC(=O)[O-])CC1.[64Cu+2] the tissue uptake was 22.1 %ID/g (ex vivo gamma counting; 22Rv1 tumour-bearing mice, intestine; intravenous, 0.74 MBq, 2 h post-injection).
For CC(C)C[C@H](NC(=O)[C@@H](CCCCNC(=O)[C@@H](Cc1ccccc1)NC(=O)CCCCCCCNC(=O)CN1CCN(CC(=O)O)CCN(CC(=O)O)CCN(CC(=O)O)CC1)NC(=O)[C@H](Cc1ccc(O)cc1)NC(=O)[C@H](CO)NC(=O)[C@H](Cc1c[nH]c2ccccc12)NC(=O)[C@H](Cc1c[nH]cn1)NC(=O)[C@@H]1CCC(=O)N1)C(=O)N[C@@H](CCCNC(=N)N)C(=O)N1CCC[C@H]1C(=O)NCC(N)=O [indium-111 labelled], the tissue uptake was 0.04 ± 0.01 %ID/g (biodistribution; male athymic nude mice, DU-145 prostate cancer xenograft, brain; intravenous, 0.037 MBq, 2 h post-injection).
For N#C[C@@H]1CCCN1C(=O)CNC(=O)c1ccnc2ccc(OCCCN3CCN(C(=O)CCc4ccc(O)c(CN5CCN6CC(=O)[O][Al-]([18F])([O]C(=O)C5)[O]c5ccc(CCC(=O)N7CCN(CCCOc8ccc9nccc(C(=O)NCC(=O)N%10CCC[C@H]%10C#N)c9c8)CC7)cc5C6)c4)CC3)cc12 (stereo partly shown), the tissue uptake was 1.29 ± 0.15 %ID/g (BALB/c nude mice, U-87 MG xenograft, spleen; 1 h, blocking, added: DOTA-FAPI-04 40 nmol/mouse co-injected).
The tissue uptake of O=C(NCC1OC2CCC=CCCC2O1)c1ccc([18F])nc1 (stereo not shown) is reported as 1.4 ± 0.3 %ID/g (female BALB/c nude mice, LS174T tumour, tumor; intravenous, 60 min, added: CC49-tetrazine 24 h before).
For CCCC[C@H](NC(=O)COCCOCCNC(=O)CN1CCN(CC(=O)O)CCN(CC(=O)O)CC1)C(=O)N[C@H]1CC(=O)NCCCC[C@@H](C(N)=O)NC(=O)[C@H](Cc2c[nH]c3ccccc23)NC(=O)[C@H](CCCNC(=N)N)NC(=O)[C@@H](Cc2ccccc2)NC(=O)[C@H](Cc2c[nH]cn2)NC1=O [fluorine-18 labelled], the tissue uptake was 0.02 ± 0.04 %ID/g (C57 mice, B16/F10 melanoma, brain; intravenous, 1 h, added: NDP-MSH 10 µg).
The tissue uptake of O=C(NCC1OC2CCC=CCCC2O1)c1ccc(COCCOCCOCC[18F])cc1 (stereo not shown) is reported as 2.7 ± 0.2 %ID/g (healthy female BALB/c nude mice, blood; intravenous, 7.4 MBq per mouse, 120 min).
For Cc1cc(C)n(CCN(CCN)CCCCCCNC(=O)[C@@H](N)Cc2c[nH]c3ccccc23)n1.[99Tc+].[C-]#[O+].[C-]#[O+].[C-]#[O+], the tissue uptake was 5.08 ± 0.67 %ID/g (BALB/c nude mice A549 xenograft, lung; intravenous, 15 min).
With COc1ccc(Nc2nc(Nc3ccc(OCCOCCOCC[18F])cc3)ncc2Br)cc1 the tissue uptake was 2.48 ± 0.18 %ID/g (ICR mice, S180 tumour-bearing, heart; intravenous, 370 kBq, 5 min).
With COc1ccc2c(c1)C(C)(C)C(/C=C/C1=C(Oc3ccc(C(=O)NCCCCOc4cc(CN(Cc5ccccn5)Cc5ccccn5)cc(CN(Cc5ccccn5)Cc5ccccn5)c4)cc3)C(=C/C=C3/N(CCCCS(=O)(=O)[O-])c4ccc(OC)cc4C3(C)C)CCC1)=[N+]2CCCCS(=O)(=O)[O-].O=[N+]([O-])[O-].O=[N+]([O-])[O-].[99Tc+].[C-]#[O+].[C-]#[O+].[C-]#[O+].[Zn+2] the tissue uptake was 2.87 %ID/g and 6.97 %ID/g and 3.92 %ID/g and 5.75 %ID/g (BALB/c mice, S. aureus myositis, small intestine with contents; 12 h post-injection).

Excerpt of the above:
The tissue uptake of O=C(NCC1OC2CCC=CCCC2O1)c1ccc(COCCOCCOCC[18F])cc1 (stereo not shown) is reported as 2.7 ± 0.2 %ID/g (healthy female BALB/c nude mice, blood; intravenous, 7.4 MBq per mouse, 120 min).
